Published values collected from several papers.
Numbered parts are unrelated; each lists some results of a single study.
Sequence of UniProt Q9UIK4 (whole entry, looked up): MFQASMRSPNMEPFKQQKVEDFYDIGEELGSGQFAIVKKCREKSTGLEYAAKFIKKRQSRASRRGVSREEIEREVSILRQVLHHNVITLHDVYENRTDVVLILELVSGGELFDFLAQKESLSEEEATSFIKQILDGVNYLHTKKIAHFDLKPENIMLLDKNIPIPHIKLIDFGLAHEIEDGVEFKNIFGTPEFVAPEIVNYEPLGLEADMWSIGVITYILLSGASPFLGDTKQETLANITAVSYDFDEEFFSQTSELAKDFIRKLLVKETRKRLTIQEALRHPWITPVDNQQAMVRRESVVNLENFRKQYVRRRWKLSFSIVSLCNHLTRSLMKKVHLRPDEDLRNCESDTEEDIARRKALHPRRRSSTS
Sequence of UniProt Q14680 (whole entry, looked up): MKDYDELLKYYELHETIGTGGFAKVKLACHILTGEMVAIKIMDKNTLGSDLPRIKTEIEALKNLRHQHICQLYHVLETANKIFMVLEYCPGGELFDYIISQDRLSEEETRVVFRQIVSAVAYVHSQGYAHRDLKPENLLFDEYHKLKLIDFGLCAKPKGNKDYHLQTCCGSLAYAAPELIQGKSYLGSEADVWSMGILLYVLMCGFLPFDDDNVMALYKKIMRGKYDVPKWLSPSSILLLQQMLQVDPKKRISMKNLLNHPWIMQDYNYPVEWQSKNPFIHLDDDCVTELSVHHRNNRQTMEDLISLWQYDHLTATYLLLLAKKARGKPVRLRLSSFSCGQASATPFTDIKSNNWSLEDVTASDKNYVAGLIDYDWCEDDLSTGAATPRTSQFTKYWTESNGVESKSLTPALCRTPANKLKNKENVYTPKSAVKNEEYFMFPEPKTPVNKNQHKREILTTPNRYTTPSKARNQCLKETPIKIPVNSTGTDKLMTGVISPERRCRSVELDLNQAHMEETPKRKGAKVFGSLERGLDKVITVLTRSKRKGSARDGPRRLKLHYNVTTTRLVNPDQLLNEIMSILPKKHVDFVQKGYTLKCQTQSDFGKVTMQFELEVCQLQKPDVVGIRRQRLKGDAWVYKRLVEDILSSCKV
Sequence of UniProt P22455 (whole entry, looked up): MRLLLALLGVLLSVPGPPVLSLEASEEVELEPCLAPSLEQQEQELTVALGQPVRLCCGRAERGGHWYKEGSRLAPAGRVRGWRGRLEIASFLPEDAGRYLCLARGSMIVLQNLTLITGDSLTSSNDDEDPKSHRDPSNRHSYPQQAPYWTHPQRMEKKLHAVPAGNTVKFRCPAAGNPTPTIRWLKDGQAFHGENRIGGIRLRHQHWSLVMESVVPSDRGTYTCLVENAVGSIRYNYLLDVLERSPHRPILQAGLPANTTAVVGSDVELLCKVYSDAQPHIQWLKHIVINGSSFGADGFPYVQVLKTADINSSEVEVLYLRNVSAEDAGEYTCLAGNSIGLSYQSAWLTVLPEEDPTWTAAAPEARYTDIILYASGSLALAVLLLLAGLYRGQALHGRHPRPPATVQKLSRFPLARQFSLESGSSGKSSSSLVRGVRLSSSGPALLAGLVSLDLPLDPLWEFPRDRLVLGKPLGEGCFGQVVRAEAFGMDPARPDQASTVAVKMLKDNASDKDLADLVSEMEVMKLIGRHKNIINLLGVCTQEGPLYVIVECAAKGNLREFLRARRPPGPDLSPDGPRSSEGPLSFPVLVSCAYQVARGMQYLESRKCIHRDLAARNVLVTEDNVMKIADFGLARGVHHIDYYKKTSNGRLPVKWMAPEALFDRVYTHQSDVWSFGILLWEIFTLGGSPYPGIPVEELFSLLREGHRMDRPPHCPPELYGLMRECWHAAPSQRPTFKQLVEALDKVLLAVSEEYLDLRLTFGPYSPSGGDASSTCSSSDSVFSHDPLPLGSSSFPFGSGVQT
Sequence of UniProt P21127 (whole entry, looked up): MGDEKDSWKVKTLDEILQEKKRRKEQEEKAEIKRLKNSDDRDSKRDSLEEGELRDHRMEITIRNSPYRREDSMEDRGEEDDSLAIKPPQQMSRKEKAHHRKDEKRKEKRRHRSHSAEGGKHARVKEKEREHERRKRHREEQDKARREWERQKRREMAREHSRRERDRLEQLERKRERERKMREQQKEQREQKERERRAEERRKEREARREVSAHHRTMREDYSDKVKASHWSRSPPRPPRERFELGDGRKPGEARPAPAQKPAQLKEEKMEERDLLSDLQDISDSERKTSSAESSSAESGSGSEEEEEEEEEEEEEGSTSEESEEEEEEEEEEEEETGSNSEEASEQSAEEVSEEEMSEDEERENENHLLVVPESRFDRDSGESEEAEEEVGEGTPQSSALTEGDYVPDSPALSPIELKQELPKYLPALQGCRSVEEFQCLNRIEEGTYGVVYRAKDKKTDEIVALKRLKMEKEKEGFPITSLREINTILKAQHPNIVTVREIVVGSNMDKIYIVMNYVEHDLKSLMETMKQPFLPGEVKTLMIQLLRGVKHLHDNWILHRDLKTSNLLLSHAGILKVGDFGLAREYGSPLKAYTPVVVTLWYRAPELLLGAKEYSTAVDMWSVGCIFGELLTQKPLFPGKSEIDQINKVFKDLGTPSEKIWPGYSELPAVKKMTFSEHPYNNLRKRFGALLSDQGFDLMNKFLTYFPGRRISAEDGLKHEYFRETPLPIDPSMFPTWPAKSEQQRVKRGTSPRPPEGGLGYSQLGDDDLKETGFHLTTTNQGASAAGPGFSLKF
Sequence of UniProt Q8WU08 (whole entry, looked up): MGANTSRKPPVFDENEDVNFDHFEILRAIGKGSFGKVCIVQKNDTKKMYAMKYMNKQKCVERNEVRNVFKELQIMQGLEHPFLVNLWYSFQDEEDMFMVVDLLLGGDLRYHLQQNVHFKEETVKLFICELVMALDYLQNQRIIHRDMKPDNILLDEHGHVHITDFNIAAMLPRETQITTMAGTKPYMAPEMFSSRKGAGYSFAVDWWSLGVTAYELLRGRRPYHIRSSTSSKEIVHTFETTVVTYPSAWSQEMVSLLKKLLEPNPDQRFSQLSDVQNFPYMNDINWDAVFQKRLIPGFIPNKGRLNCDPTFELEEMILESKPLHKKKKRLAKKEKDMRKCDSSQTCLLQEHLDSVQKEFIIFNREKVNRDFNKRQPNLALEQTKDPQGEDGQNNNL
Sequence of UniProt O14730 (whole entry, looked up): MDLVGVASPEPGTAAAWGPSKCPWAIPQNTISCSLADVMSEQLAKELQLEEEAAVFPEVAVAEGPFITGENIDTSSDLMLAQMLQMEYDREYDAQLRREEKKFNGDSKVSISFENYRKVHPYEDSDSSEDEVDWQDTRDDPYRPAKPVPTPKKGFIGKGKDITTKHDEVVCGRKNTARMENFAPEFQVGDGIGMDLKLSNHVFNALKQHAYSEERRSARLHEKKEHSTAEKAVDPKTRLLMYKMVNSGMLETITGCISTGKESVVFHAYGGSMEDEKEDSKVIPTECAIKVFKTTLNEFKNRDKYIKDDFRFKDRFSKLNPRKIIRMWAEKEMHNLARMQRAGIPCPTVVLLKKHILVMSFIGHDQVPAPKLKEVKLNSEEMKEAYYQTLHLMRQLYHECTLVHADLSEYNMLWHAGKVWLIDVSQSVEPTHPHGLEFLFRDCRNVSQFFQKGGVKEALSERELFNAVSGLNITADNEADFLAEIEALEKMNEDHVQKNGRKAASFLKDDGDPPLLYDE

Set 1 — concentration: 1 µM
Compound: CC[C@@]1(c2cccc(C(F)(F)F)c2)C2=C(Nc3n[nH]cc31)[C@H](F)C(C)(C)CC2=O (single isomer, unassigned)
target	read-out	technique	baseline	remaining binding [%]
RIPK1 (Homo sapiens, UniProt Q13546)	kinase binding	KINOMEscan	DMSO control	100
CDK11B (Homo sapiens, UniProt P21127)	binding	competition with immobilised ligand	–	100
FLT1 (Homo sapiens, UniProt P17948)	binding	competition with immobilised ligand	–	99
PRKCQ (Homo sapiens, UniProt Q04759)	binding	competition with immobilised ligand	–	80
STK32A (Homo sapiens, UniProt Q8WU08)	kinase binding	KINOMEscan	DMSO control	100
RIOK3 (Homo sapiens, UniProt O14730)	kinase binding	KINOMEscan	DMSO control	100
CDK15 (Homo sapiens, UniProt Q96Q40)	kinase binding	KINOMEscan	DMSO control	100
MAP4K2 (Homo sapiens, UniProt Q12851)	kinase binding	KINOMEscan	DMSO control	100
CAMKK2 (Homo sapiens, UniProt Q96RR4)	binding	competition with immobilised ligand	–	100
FGFR4 (Homo sapiens, UniProt P22455)	binding	competition with immobilised ligand	–	82
PIP4K2B (Homo sapiens, UniProt P78356)	binding	competition with immobilised ligand	–	100
MELK (Homo sapiens, UniProt Q14680)	kinase binding	KINOMEscan	DMSO control	88
DAPK2 (Homo sapiens, UniProt Q9UIK4)	binding	competition with immobilised ligand	–	100
DYRK1A (Homo sapiens, UniProt Q13627)	binding	competition with immobilised ligand	–	71
PHKG2 (Homo sapiens, UniProt P15735)	binding	competition with immobilised ligand	–	100

Set 2 — cell line: U-87 MG; concentration: concentration not given; baseline: DMSO
Compound: CCN1/C(=C/C=C2\CCCC(/C=C/C3=[N+](CC)c4ccccc4C3(C)C)=C2NCCCCCCCCN2CCC(Nc3nc4ccccc4n3Cc3ccc(F)cc3)CC2)C(C)(C)c2ccccc21
refers to	log2 fold change
SLC22A15 mRNA	1.64
TIFA mRNA	1.19
GAB2 mRNA	1.65
NPIPA2 mRNA	0.947
PRKAR2B mRNA	-1.05
SMIM21 mRNA	-2.51
KIF20A mRNA	-2.9
DLGAP5 mRNA	-2.29
RNF114 mRNA	0.83
CCNB1IP1 mRNA	1.19
KCTD16 mRNA	1.74
PRUNE2 mRNA	-1.29
GADD45A mRNA	1.8
FANCD2 mRNA	-1.76
HOMER1 mRNA	1.06
LBH mRNA	0.955

Set 3 — read-out: thermal unfolding; technique: differential scanning fluorimetry; concentration: 5.5 µM; reading: higher = more unfolded
Compound: C[C@@H]1CN(c2ccc(-c3cc(C(=O)NCCOCCOCCOCCOCCOCCOCCNC(=O)/C=C/c4[nH]cc(C(=O)N[C@@H](CC(N)=O)c5ccc(F)c(Cl)c5)c4-c4ccc(Cl)cc4F)ccc3F)cc2NC(=O)c2ccc(F)cc2C(F)(F)F)C[C@H](C)N1C
DCAF1: DDB1- and CUL4-associated factor 1 (DCAF1, Homo sapiens, UniProt Q9Y4B6)
Sequence of UniProt Q9Y4B6 (whole entry, looked up): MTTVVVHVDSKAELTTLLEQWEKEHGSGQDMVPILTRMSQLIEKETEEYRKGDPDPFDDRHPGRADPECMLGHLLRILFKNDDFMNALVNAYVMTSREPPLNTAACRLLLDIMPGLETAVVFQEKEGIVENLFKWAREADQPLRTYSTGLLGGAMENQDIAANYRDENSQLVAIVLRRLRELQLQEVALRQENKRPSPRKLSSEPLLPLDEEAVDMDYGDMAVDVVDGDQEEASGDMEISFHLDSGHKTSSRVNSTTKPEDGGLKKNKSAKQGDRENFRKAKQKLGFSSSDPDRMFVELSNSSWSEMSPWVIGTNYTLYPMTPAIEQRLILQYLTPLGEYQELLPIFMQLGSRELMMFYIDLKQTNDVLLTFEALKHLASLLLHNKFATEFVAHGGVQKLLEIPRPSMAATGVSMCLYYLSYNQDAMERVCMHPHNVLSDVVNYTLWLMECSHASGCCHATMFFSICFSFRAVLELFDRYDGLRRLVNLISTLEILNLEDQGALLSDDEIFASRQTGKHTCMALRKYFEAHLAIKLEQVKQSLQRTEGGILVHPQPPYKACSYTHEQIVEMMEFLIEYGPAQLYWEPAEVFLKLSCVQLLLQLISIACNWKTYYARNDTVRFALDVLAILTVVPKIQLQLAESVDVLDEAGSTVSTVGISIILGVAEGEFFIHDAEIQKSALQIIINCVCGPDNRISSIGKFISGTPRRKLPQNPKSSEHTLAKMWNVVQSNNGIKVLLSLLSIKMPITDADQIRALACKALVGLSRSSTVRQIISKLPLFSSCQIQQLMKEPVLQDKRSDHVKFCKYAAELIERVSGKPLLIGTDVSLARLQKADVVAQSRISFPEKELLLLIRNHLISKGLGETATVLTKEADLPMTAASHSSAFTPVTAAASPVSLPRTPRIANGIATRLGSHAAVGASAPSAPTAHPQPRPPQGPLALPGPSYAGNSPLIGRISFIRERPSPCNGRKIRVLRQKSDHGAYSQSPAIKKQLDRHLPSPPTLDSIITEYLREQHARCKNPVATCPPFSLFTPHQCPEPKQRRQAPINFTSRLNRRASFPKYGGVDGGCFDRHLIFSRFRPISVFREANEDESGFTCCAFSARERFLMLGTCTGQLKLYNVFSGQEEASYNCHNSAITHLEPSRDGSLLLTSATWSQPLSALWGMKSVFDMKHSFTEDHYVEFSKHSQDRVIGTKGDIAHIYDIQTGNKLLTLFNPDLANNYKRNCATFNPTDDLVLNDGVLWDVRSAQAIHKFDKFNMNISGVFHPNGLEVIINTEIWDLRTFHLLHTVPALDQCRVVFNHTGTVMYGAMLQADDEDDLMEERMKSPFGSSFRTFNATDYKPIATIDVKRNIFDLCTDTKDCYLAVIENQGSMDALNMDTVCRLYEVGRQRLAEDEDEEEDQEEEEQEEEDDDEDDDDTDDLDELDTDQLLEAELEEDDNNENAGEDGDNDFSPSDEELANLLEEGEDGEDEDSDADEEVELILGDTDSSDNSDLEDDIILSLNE
WDR5: WD repeat-containing protein 5 (WDR5, Homo sapiens, UniProt P61964)
target	temperature	SYPRO Orange fluorescence
DCAF1	40.4 °C	11700 a.u.
DCAF1	61.61 °C	51900 a.u.
DCAF1	42.8 °C	13300 a.u.
DCAF1	70.81 °C	47400 a.u.
WDR5	26.4 °C	13300 a.u.
DCAF1	54.81 °C	26400 a.u.
DCAF1	61.41 °C	51500 a.u.
DCAF1	30 °C	8350 a.u.
WDR5	89.41 °C	55900 a.u.
DCAF1	86.61 °C	34500 a.u.
WDR5	26 °C	13200 a.u.

Single results of other studies
Structure (SMILES)	target	read-out	action	quantity	value
CN(C1COC1)C(C)(C)/C=C(\C#N)C(=O)N1CCC[C@H]1Cn1nc(-c2ccc(Oc3ccccc3)cc2F)c2c(N)ncnc21	Tyrosine-protein kinase BTK (BTK, Homo sapiens, UniProt Q06187)	enzyme activity	inhibitor	kinact	0.0047 s⁻¹

A few entries again (set 2):
refers to	log2 fold change
KCTD16 mRNA	1.74
TIFA mRNA	1.19
SLC22A15 mRNA	1.64
RNF114 mRNA	0.83
PRUNE2 mRNA	-1.29
DLGAP5 mRNA	-2.29
NPIPA2 mRNA	0.947
